Experimental data collected from several papers.
A part holds a random share of what one study measured.

Block 1
Target: Cyclic AMP-dependent transcription factor ATF-1 (ATF1, Homo sapiens, UniProt P18846, residues 1-271, full length assumed)
Method: protein-binding microarray
Form: double-stranded DNA, one strand shown
Sample: in vitro
Tested at: not given
Setting: k-mer, scored over probes, only values ≥0.25
Reading: higher = stronger binding
Construct (chain): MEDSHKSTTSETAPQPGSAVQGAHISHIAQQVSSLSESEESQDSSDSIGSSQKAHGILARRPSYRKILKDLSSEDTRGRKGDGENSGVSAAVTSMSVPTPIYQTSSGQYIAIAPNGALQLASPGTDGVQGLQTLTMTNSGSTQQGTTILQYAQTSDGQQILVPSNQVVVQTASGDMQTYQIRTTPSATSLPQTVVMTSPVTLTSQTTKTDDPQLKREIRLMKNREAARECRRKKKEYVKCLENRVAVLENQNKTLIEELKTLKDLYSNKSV
Oligonucleotide | E-score
ACGTATC | 0.343
AAACGTA | 0.302
CGCGTAA | 0.343
ATACACG | 0.255
CGCTACG | 0.333
ACGCACC | 0.266
AACACGT | 0.363
CCGTGAC | 0.41
GCGTCAC | 0.488
GCCGTCA | 0.32
AGCGTCA | 0.439
GTCACAC | 0.362
ACATACG | 0.333
CACGTGA | 0.317
GCGTGTA | 0.28
CCGCGTC | 0.299
AACTACG | 0.289
ATGACGC | 0.476
CGTAAAC | 0.282
AGATGAC | 0.331
ACGTCAT | 0.496
CGTAAGC | 0.251
GTCACGA | 0.363
GTATGAC | 0.371
CCCGTCA | 0.392

Block 2
Target: Ras GTPase-activating protein-binding protein 1, full length (G3BP1, Homo sapiens, UniProt Q13283)
Sequence of UniProt Q13283 (whole entry, looked up): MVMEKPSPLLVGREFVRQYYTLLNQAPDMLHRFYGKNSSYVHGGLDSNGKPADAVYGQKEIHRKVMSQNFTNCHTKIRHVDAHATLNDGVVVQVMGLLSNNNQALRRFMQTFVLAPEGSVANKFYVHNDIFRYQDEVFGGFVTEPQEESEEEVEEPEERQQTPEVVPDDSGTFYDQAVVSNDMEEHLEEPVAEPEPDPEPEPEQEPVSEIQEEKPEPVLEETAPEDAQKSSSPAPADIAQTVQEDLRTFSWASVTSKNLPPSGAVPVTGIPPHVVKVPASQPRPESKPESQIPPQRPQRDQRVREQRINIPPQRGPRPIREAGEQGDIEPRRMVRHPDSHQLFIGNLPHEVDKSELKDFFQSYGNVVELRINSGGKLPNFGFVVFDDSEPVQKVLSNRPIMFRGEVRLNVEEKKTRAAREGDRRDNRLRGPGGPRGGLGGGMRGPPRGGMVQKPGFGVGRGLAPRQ
Method: RNA Bind-n-Seq
Form: RNA
Sample: in vitro
Tested at: 200 nM
Setting: whole 134-nt RNA, ends assumed
With: 150 mM KCl
Reference: input library
Reading: higher = stronger binding
Oligonucleotide | log2 enrichment
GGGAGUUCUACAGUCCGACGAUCUCAAGUCCUGUGCUACACAUCGUAUGUACCGAAUCGGUUUGGUGGAAAAAAAGGAAAGUAUUAUGUUACGCCGUUCGGAUCUGCACUUCCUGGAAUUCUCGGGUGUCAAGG | -0.711
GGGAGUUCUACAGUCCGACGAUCCAAGUCCUGUGCUACACAUCGUAUGUACCGAAUCGGGAGGGAGGGAAAAAAAGGGAAAGUAUUAUGUUACGCCGUUCGGAUCUGCACUUCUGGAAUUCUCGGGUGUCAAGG | 0.252
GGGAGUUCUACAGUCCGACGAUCCACAGACAACACGCACCCACACAGACACAGAGGGAAGGGGUUGGGAUGGGGACAGGGUGCACAGCAGGGCGGAGUAGGACCCCAGCCCCUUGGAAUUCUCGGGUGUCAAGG | 1.97
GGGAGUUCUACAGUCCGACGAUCCUGUGCUACACAUCGUAUGUACCGAAUCGGGGCCCCCCCGGGGCCCCCCCGGCCCCCCCGGAAAGUAUUAUGUUACGCCGUUCGGAUCUGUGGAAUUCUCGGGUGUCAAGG | -0.493
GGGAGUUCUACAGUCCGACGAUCUAACUUUAGAGGAGGAUCUGAUGGAUAUGGGAGUGGACGUGGAUUUGGGGAUGGCUAUAAUGGGUAUGGAGGAGGACCUGGAGGUGGCAAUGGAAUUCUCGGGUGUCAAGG | 0.473
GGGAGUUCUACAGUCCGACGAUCUGCUUCAUCGCCUUGUGCUCCUGCCCCUGGGAGCUGUGGAUCCCAGAUCCAGAUGACAGCCCACCUUGCUGGCAGGAUGCGCCAAUCCCCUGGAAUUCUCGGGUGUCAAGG | -0.237
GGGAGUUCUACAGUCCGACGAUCCUCAAGUCCUGUGCUACACAUCGUAUGUACCGAAUCGGGCCGGGGCCGGCCGGGAAAGUAUUAUGUUACGCCGUUCGGAUCUGCACUUCCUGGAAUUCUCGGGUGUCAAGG | -0.392
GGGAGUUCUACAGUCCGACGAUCAGUCCUGUGCUACACAUCGUAUGUACCGAAUCGGUUUUUUUGGUUUGGAAAAAAAGGAAAGUAUUAUGUUACGCCGUUCGGAUCUGCACUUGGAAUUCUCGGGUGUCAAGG | -1.61
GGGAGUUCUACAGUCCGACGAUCCUCAAGUCCUGUGCUACACAUCGUAUGUACCGAAUCGGGUUGGGUUGGUUGGGAAAGUAUUAUGUUACGCCGUUCGGAUCUGCACUUCCAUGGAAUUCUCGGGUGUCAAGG | 0.67

Block 3
Target: RING finger protein unkempt homolog, zinc fingers 1-6, GST-SBP tag (UNK, Homo sapiens, UniProt Q9C0B0, residues 30-357)
Sequence of UniProt Q9C0B0 (30-357, looked up): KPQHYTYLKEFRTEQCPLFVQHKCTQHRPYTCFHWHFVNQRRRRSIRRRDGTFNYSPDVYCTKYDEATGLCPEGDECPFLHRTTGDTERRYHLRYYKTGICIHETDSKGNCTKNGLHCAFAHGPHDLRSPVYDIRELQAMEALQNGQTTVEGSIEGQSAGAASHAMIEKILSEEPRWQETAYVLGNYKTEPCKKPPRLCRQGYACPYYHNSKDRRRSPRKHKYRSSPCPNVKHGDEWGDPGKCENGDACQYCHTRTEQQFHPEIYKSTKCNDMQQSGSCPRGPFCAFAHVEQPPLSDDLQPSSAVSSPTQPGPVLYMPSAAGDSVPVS
Method: RNA Bind-n-Seq
Form: RNA
Sample: in vitro
Tested at: not given
Setting: RNA with constant flanks, human-mouse chimeric sites, ends assumed
Reference: input RNA pool
Reading: higher = stronger binding
Oligonucleotide | bound/input enrichment [ratio]
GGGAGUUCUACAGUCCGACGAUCGCUGAAAAUGAAGAAGAGGCAGCUGAUGUCUGGUACAACCUGGGGCAUGUAGCUGUGGGAAUCGGAGAUACAAACUUGGCCCAUCAGUGCUUCAGGCUGGCCCUGGUCCACAACAACCACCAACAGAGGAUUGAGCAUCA | 0.131
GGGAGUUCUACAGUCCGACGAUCAGCACAACCCCAGCAAAGCUAAGAAAUCCUUGCACAAGUGAACAAAACUGCACCAGCCCAUUUAGCUACAAAAAUGUGCUUAGUCUUACUAAUAAAGGAGAGUUUUUCAAUGAACUUGUUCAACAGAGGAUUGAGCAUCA | 0.819
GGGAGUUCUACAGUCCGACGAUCCUUAAUGUUAAUAUUUUUGAAUAAAUGAAGCUAAAAUGUCUGCUUUUGGUACAACACGCAUUAGCGAAAGGUUAAGUUUUGUUUUCCACUGAAGUACGUAAUACUUACUCAGAAAAAAACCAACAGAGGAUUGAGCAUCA | 0.816
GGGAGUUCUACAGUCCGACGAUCUUGGAAGGACCAGAGCCUAAUCAACUGAAACCAUUAGUUAUACAGGCUAUGCCCACCCUAAUAGAAUUAAUGAAAGACCCCAGUGUAGUUGUUCGAGACACAACAGCGUGGACUGUGGGCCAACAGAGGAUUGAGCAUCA | 2.23
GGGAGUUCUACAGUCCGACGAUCCCACCAGGAUCCCAGAAACAUGACCCUUGCUGCCUACAAAGAGAAGAUGAAGGAGCUCCCACUAGUGUCCUUGUUCUGCUCCUGCUUCCUGGCCGAUCCCCUGAAUAAGUCGUCCUACAACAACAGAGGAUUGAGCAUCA | 0.822
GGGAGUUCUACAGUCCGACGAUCCUGGCCUGGCCCUCCCCAGGGGCCUCCUUUCGUAUAGUCACUGCUUCUGCAUCAGAUAUUUUUAGCUGCAACUCCCUACUGGGUGGGGCACCCAUUUGAGGCAGGGUGUUUUGGUACCCUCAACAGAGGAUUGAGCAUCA | 1.05
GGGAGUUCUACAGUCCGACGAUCCACUCGAGGGCUGCCGUUUUCUGUUUCUCCCUGGGCUGCGGAAAGCCAGAAGAUUUUAUCUAGCUUAUACAAGGCUGCUGGUGUUCCCUCUUUUUUUCCCUCUCUCUGUUUUUGGCUGCACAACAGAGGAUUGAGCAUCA | 0.604
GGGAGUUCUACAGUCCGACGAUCAGUGUGCAGGAAUUCAUGACCUUUACAAGUCAACUGAUUGUGGAACGCUCGGGGAAAGGCAGCAGAGCUUCUGUCAAAGAACAAGACUAUCUUUGCCAUGUCUACGUCCGGAAUGAUAGUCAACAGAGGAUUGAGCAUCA | 0.227

Block 4
Target: Histone acetyltransferase KAT6A, both winged helices, GST fusion (KAT6A, Homo sapiens, UniProt Q92794, residues 1-181)
Method: protein binding microarray
Form: double-stranded DNA, one strand shown
Sample: in vitro
Tested at: not given
Setting: 8-mer, flanks averaged, mean of 2 arrays, mostly near background
Reference: not given
Reading: higher = stronger binding
Residues (chain): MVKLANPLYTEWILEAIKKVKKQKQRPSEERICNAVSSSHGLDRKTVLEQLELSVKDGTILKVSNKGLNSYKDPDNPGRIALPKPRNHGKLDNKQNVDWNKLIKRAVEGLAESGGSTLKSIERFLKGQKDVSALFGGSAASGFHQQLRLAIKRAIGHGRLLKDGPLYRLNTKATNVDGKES
Oligonucleotide | E-score
ACGTAGTA | 0.107
GTCCTACA | -0.0872
TAACCGAA | -0.0283
ATATGGGG | -0.079
CCAGGCCG | 0.0429
ATTTAGAC | -0.0384
AGACGGCG | 0.211
CAAATTGC | -0.0291
CATCTTTC | -0.307
GTCTGTTA | -0.0249
CTATGTGA | -0.127
CAGTGTAG | -0.171
GAATTATA | 0.0446
GGGGTGGA | -0.181
CTCTCGTA | -0.156
CACTCCCG | 0.068
TGGATACA | -0.0362
GCGGTCAA | 0.291
GGAACGCA | 0.162
AACGGGAA | 0.309
ATCGCCAG | 0.0314
ACACTCAA | -0.0798
CATTTCCG | 0.173
ATTTTCGC | 0.0989
AACGCCGC | 0.26

A few entries again (block 4):
Oligonucleotide | E-score
GGGGTGGA | -0.181
CTCTCGTA | -0.156
CACTCCCG | 0.068
TGGATACA | -0.0362
GCGGTCAA | 0.291
GGAACGCA | 0.162
AACGGGAA | 0.309
ATCGCCAG | 0.0314
ACACTCAA | -0.0798
CATTTCCG | 0.173
ATTTTCGC | 0.0989
